{"data": "Results of several laboratories", "note": "Each line is one published result; not all experiments were run side by side."}
{"SMILES": "CC(COC(=O)c1ccccc1)OC(=O)C(N)C(C)C (mixture of isomers)", "setting": "pH 7.4", "half-life [h]": "~24"}
{"SMILES": "CC[C@H](C)[C@@H]1NC(=O)[C@H](Cc2ccc(O)cc2)NC(=O)[C@@H](N)CSCSC[C@@H](C(=O)N2CCC[C@H]2C(=O)N[C@@H](CC(C)C)C(=O)NCC(N)=O)NC(=O)[C@H](CC(N)=O)NC(=O)[C@H](CCC(N)=O)NC1=O", "system": "phosphate buffer", "setting": "0.1 mg/mL, pH 7.0, 55 °C", "half-life [h]": 192}
{"SMILES": "CC[C@H](C)[C@H](NC(=O)[C@H](CC(N)=O)NC(=O)[C@@H]1CCCN1C(=O)[C@H](CO)NC(=O)[C@H](CC(N)=O)NC(=O)[C@@H](N)CCC(N)=O)C(=O)N[C@@H](Cc1ccccc1)C(=O)NCC(=O)N[C@@H](CCC(N)=O)C(=O)N[C@@H](Cc1c[nH]c2ccccc12)C(=O)N[C@@H](CCSC)C(=O)O", "test": "chemical stability", "system": "PBS", "setting": "280 µM, pH 7.2", "half-life [h]": "> 24"}
{"SMILES": "CC(C)C[C@H](NC(=O)[C@H](CCCCN)NC(=O)[C@H](CCC(=O)O)NC(=O)[C@H](C)NC(=O)[C@@H](NC(=O)[C@H](CCCCN)NC(=O)[C@H](CC(=O)O)NC(=O)[C@H](Cc1ccc(O)cc1)NC(=O)[C@H](Cc1ccccc1)NC(=O)[C@H](C)NC(=O)[C@H](CCCCN)NC(=O)[C@H](CC(C)C)NC(=O)[C@H](Cc1c[nH]c2ccccc12)NC(=O)[C@@H](N)CC(=O)O)C(C)C)C(=O)N[C@@H](CCCCN)C(=O)N[C@@H](CCC(=O)O)C(=O)N[C@@H](C)C(=O)N[C@@H](Cc1ccccc1)C(=O)N1CCC[C@H]1C(=O)N[C@@H](CC(=O)O)C(=O)N[C@@H](Cc1c[nH]c2ccccc12)C(=O)N[C@@H](C)C(=O)N[C@@H](CCCCN)C(=O)N[C@@H](C)C(=O)N[C@@H](C)C(=O)N[C@@H](Cc1ccc(O)cc1)C(=O)N[C@@H](CC(=O)O)C(=O)N[C@@H](CCCCN)C(=O)N[C@@H](C)C(=O)N[C@@H](C)C(=O)N[C@@H](CCC(=O)O)C(=O)N[C@@H](CCCCN)C(=O)N[C@@H](C)C(=O)N[C@@H](CCCCN)C(=O)N[C@@H](CCC(=O)O)C(=O)N[C@@H](C)C(=O)N[C@@H](C)C(=O)O", "system": "cynomolgus monkey female, plasma", "setting": "intravenous infusion, 25 mg/kg, day 1, 30 min infusion", "half-life [h]": 4}
{"SMILES": "COc1cc(NC(=O)C(=O)c2c(C)n(Cc3ccc(Cl)cc3)c3ccc(C)cc23)ccn1", "system": "cynomolgus monkey, female, plasma", "setting": "oral, 10 mg/kg", "half-life [h]": 15.8}
{"SMILES": "CCCCCCCC/C=C\\CCCCCCCCOP(O)(O)=S.N", "system": "mouse, male, irradiated", "setting": "sc, dose not given, 15.6 Gy partial-body, dosed 24 h after", "half-life [h]": 1.52}
{"SMILES": "CCCCCCCCNP(=O)(Oc1ccccc1)O[C@@H]1O[C@H](CO)[C@@H](O)[C@H](O)[C@H]1F (stereo partly drawn)", "test": "chemical stability", "system": "aqueous buffer", "setting": "100 µM, pH 6.8", "half-life [h]": 8.5}
{"SMILES": "O=C(OCC(=O)c1ccc([N+](=O)[O-])cc1)/C(=C/c1ccc(Cl)cc1)NC(=O)c1ccccc1", "test": "chemical stability", "system": "glutathione solution", "setting": "500 µM", "half-life [h]": 0.0233}
{"SMILES": "C#CCNC(=O)c1ccc(S(=O)(=O)N[C@@H](CCCCNC(=O)c2cncc(OS(=O)(=O)F)c2)C(=O)N[C@@H](CCCNC(=N)N)C(=O)NC2CCC2)cc1", "test": "chemical stability, HPLC", "system": "glutathione solution", "setting": "50 µM, pH 8", "half-life [h]": "> 17"}
{"SMILES": "CC(C)(CCCC/C=C/CCCCCC(C)(C)C(=O)O)C(=O)O", "system": "ICR mouse, plasma", "setting": "intravenous, 10 mg/kg", "half-life [h]": 4.55}
{"SMILES": "CC(COC(=O)c1ccccc1)OC(=O)C(N)Cc1ccccc1 (mixture of isomers)", "system": "90% rat intestinal perfusate", "setting": "100 µM", "half-life [h]": "> 2"}
{"SMILES": "COC(=O)CCC(C)C1CCC2C3C(O)CC4CC(OC(=O)CCC(=O)OC5OC6OC7(C)CCC8C(C)CCC(C5C)C68OO7)CCC4(C)C3CCC12C (stereo not drawn)", "test": "chemical stability", "system": "culture medium", "setting": "20 µM", "half-life [h]": "~15"}
{"note": "A few entries again:"}
{"SMILES": "COC(=O)CCC(C)C1CCC2C3C(O)CC4CC(OC(=O)CCC(=O)OC5OC6OC7(C)CCC8C(C)CCC(C5C)C68OO7)CCC4(C)C3CCC12C (stereo not drawn)", "test": "chemical stability", "system": "culture medium", "setting": "20 µM", "half-life [h]": "~15"}
